Measured values gathered from unrelated publications.
Lines come from different studies, so protocols differ. ± marks the error that the study gave.

O=C(NC1CCOCC1)c1ccc(C2CCCCC2)cc1
hepatic clearance (hepatocyte stability; cryopreserved human hepatocytes; 1 µM): 19 mL/min/kg

CC(C)OC(=O)[C@H](CO)NCc1cc(Cl)c(OCc2cccc(-c3ccccc3)c2Br)cc1OCc1cccnc1
body weight (hPD-L1 MC-38 tumour, humanised hPD-1 C57BL/6 mouse; oral, 5 mg/kg × 21, day 1, baseline): 19.7 ± 0.7 g

C=CC(=O)Nc1cc(Nc2nccc(-c3c[nH]c4ccccc34)n2)c(OC)cc1N(C)CCN(C)C
recovery (storage stability; human plasma; 24 h, -80 °C, high QC level): 96.1%

CN(C(=O)C(C)(C)c1cc(C(F)(F)F)cc(C(F)(F)F)c1)c1cnc(N2C[C@H]3COC(O)CN3C[C@H]2CO)cc1-c1ccc(F)cc1CO (some centres unmarked)
unbound intrinsic clearance (pooled human liver microsomes; pH 7.4, substrate depletion): 211 µL/min/mg

COc1ccc2c(c1)CN(C(=O)CCN1CCC(Cc3ccccc3)CC1)CCS2
fu (dog plasma; 75 ng/mL): 0.068

CC(C)CC(=O)Nc1ccc([C@H]2[C@@H](F)[C@@H](F)C[C@@H](F)[C@H]2F)cc1
hepatic clearance (liver microsome stability; human liver microsomes; 1 µM, without NADPH): 3.9 mL/min/kg

CC1(C)C(=CC=C2CCCC(C=CC3=[N+](CCC[N+](C)(C)C)c4ccc(S(=O)(=O)O)cc4C3(C)C)=C2SCCOCCOCCC(=O)O)N(CCC[N+](C)(C)C)c2ccc(S(=O)(=O)O)cc21
urinary excretion (CD-1 mouse, urine; intravenous, 50 nmol, up to 4 h): 85 ± 1.9 % injected dose

Cc1[nH]c(=O)c(CNC(=O)c2cc(Cl)c3c(c2C)O[C@@](C)([C@H]2CC[C@H](N(C)C)CC2)O3)c(C)c1O
AUC(0-inf) ratio (human male, plasma; oral, 200 mg of valemetostat; reference: compound over valemetostat): 0.88

O=C(NC1CCC(F)(F)CC1)C(c1cncnc1)N(C(=O)C(F)Cl)c1ccc(-c2cncs2)cc1 (centres unmarked)
CLint (human liver microsomes; concentration not given, pH 7.4): 29.6 µL/min/mg

COc1cccc(OC)c1-c1cc(C(=O)NC2(C(=O)O)C3CC4CC(C3)CC2C4)nn1-c1ccc(C(=O)N(C)CCOCCN(C)C(=O)[C@H](CCCCNC(=O)[C@H](CC(C)C)NC(=O)C2OC2C(=O)O)NC(=O)CN2CCN(CC(=O)[O-])CCN(CC(=O)[O-])CCN(CC(=O)[O-])CC2)cc1C(C)C.[177Lu+3] (mixture of isomers)
tumour-to-kidney ratio (mouse, HT-29 xenograft; 24 h post injection, biodistribution; reference: tumour over kidney uptake): 0.41

O=C(CC1CCOCC1)Nc1ccc([C@H]2[C@@H](F)[C@@H](F)C[C@@H](F)[C@H]2F)cc1
hepatic clearance (liver microsome stability; mouse liver microsomes; 1 µM): 34 mL/min/kg

COC1C=COC2(C)Oc3c(C)c(O)c4c(c3C2=O)C2=NC3(CCN(CC(C)C)CC3)NC2=C(NC(=O)C(C)=CC=CC(C)C(O)C(C)C(O)C(C)C(OC(=O)Nc2cscn2)C1C)C4=O (centres unmarked)
fAUC/MIC ratio (CD-1 mouse, plasma; oral, dose not given, efficacy dose): 28

O=C(NS(=O)(=O)c1cccs1)c1cc2ccccc2n1Cc1ccc(Br)c2ccccc12
plasma concentration (Sprague-Dawley rat, male; intravenous, dose not given, 0.25 h): 1290 ng/mL

CNC(=O)c1ccc([C@H]2[C@@H](F)[C@@H](F)C[C@@H](F)[C@H]2F)cc1
hepatic clearance (hepatocyte stability; cryopreserved human hepatocytes; 1 µM): 6.2 mL/min/kg

CCC1CNC(CC)CN(C(C(=O)[O-])c2ccc(C(=O)[O-])cc2)C(CC)CN(CC(=O)[O-])C(CC)CN1.[Mn+2] (centres unmarked)
Mn content (ICP-MS; BALB/c mouse, lung; intravenous, 0.05 mmol/kg, 5 min, without anaesthesia): 2.46 ± 0.34 µg/g

O=C(Nc1cc(-c2ccnc3[nH]ccc23)c(Cl)cn1)[C@H]1CCC[C@@H](NC(=O)C(F)(F)F)C1
hepatic clearance (rat liver microsomes): 31.2 mL/min/kg

F[C@@H]1[C@H](c2ccc(-c3ccc(N4CCCC4)nc3)cc2)[C@H](F)[C@H](F)C[C@@H]1F
hepatic clearance (liver microsome stability; rat liver microsomes; 1 µM): 30 mL/min/kg

Excerpt of the above:
CN(C(=O)C(C)(C)c1cc(C(F)(F)F)cc(C(F)(F)F)c1)c1cnc(N2C[C@H]3COC(O)CN3C[C@H]2CO)cc1-c1ccc(F)cc1CO (some centres unmarked)
unbound intrinsic clearance (pooled human liver microsomes; pH 7.4, substrate depletion): 211 µL/min/mg

COc1ccc2c(c1)CN(C(=O)CCN1CCC(Cc3ccccc3)CC1)CCS2
fu (dog plasma; 75 ng/mL): 0.068

CC(C)CC(=O)Nc1ccc([C@H]2[C@@H](F)[C@@H](F)C[C@@H](F)[C@H]2F)cc1
hepatic clearance (liver microsome stability; human liver microsomes; 1 µM, without NADPH): 3.9 mL/min/kg
